# Experimental data gathered from unrelated publications.
# Protocols differ between the studies behind these lines. “And” joins repeats or separate records; there may be more than shown. Numbers after ± are the reported error.
# Chain of UniProt P06730 (whole entry, looked up): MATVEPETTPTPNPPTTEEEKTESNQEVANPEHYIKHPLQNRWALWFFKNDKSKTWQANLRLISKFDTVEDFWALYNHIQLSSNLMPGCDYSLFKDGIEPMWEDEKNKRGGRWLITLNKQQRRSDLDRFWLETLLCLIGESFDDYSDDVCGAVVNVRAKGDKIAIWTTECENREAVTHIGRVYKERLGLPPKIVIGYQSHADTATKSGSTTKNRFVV
# Chain of UniProt O95819 (whole entry, looked up): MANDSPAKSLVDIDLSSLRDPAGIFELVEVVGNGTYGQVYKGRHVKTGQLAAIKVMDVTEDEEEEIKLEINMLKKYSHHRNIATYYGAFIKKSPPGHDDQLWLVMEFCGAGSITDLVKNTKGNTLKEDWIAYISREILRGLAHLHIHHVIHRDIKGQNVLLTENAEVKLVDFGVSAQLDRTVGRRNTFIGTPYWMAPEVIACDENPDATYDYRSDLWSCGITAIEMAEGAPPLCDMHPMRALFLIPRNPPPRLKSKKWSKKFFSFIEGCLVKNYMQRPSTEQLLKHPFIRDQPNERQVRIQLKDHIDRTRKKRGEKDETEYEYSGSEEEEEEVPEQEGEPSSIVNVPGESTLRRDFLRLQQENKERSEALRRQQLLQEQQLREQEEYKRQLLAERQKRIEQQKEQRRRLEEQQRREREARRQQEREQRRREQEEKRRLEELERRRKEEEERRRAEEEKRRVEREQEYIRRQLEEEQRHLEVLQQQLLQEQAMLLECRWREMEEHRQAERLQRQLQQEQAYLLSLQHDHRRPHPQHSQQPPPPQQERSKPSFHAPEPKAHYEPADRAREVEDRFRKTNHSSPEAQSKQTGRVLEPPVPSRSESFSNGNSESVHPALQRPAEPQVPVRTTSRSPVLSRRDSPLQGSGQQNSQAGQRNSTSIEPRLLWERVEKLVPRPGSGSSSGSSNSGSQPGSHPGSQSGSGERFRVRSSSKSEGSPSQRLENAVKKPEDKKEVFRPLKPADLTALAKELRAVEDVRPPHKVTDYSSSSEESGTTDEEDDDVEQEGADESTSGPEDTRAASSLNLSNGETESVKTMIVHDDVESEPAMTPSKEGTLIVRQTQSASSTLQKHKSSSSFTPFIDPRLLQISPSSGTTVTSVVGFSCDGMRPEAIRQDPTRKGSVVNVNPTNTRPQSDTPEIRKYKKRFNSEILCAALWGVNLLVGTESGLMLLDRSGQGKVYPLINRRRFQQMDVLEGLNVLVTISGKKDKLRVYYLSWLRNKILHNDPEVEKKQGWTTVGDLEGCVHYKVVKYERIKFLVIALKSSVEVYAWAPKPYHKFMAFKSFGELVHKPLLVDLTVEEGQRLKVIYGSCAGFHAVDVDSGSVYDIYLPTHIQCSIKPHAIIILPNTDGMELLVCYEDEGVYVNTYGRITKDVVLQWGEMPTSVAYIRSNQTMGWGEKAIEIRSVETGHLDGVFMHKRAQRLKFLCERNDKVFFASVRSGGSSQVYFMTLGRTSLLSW
Compound,target or system,test,system,setting,scale,measurement,result
O=C(O)C(Cl)Cl.OCCN(CCO)CCO,Chenopodium album,herbicidal activity,,"15 mg/mL, 21 days, pre-emergence greenhouse",,inhibition,0%
CC(C)C[C@H]1NC(=O)[C@@H](C)NC(=O)[C@H](CO)NC(=O)[C@@H](Cc2c(-c3ccc(-c4ccc5ccccc5c4)cc3)[nH]c3ccccc23)NC(=O)[C@@H](CO)NC(=O)[C@@H](C(C)C)NC(=O)[C@H](Cc2ccccc2)NC1=O,Mycobacterium marinum,,,,,MIC90,> 100 µM
CC[C@H](C)[C@H](NC(=O)[C@H](CCCCN)NC(=O)[C@H](CC(=O)O)NC(=O)[C@H](CC(C)C)NC(=O)[C@@H](NC(=O)[C@H](CC(N)=O)NC(=O)[C@H](CC(C)C)NC(=O)[C@@H](NC(=O)[C@H](Cc1ccccc1)NC(=O)[C@H](CCCCN)NC(=O)[C@H](CCCCN)NC(=O)CNC(=O)[C@H](C)NC(=O)[C@H](CC(N)=O)NC(=O)[C@H](CCCCN)NC(=O)[C@H](Cc1ccccc1)NC(=O)[C@H](CC(N)=O)NC(=O)[C@H](CCC(=O)O)NC(=O)[C@H](Cc1c[nH]c2ccccc12)NC(=O)[C@H](CC(C)C)NC(=O)[C@@H](N)CO)[C@@H](C)CC)[C@@H](C)CC)C(=O)N[C@@H](CCCNC(=N)N)C(=O)N[C@H]1CSSC[C@@H](C(=O)N[C@@H](CCCNC(=N)N)C(=O)N[C@H](C(=O)O)[C@@H](C)O)NC(=O)CNC(=O)CNC(=O)[C@H](C)NC(=O)[C@H](C(C)C)NC(=O)[C@H](CCCNC(=N)N)NC1=O,Gram-negative bacteria,,,,,geometric mean MIC,13.5 µM
O=C(c1cccc(-c2ccc3ncnc(Nc4ccc(OCc5cccc(F)c5)c(Cl)c4)c3c2)c1)N1CCCCC1,Trypanosoma cruzi,"intracellular amastigote growth, β-galactosidase CPRG","3T3, Tulahuen, β-galactosidase-expressing",96 h,,EC50,> 50 µM
O=C1NC2(CC2)COc2ncc(F)cc2[C@H]2COCCN2c2ccn3ncc1c3n2,,,"Sprague-Dawley rat, female, ovaries","oral, 10 mg/kg/day, 4 weeks dosing, end of recovery",,organ-to-body weight ratio,0.036 ± 0.005%
CN(C)c1nc(NCc2ccc3ccccc3c2)c(/N=N/c2ccc(Cl)cc2)c(N(C)C)n1,Ostrinia furnacalis,leaf dipping,,"200 mg/L, 96 h",,mortality,33.3 ± 5.8%
COc1ccccc1-c1n[nH]c2nc(NC3CCN(C(=O)Cc4ccc(F)cc4F)CC3)ncc12,,"bead binding, competition bead pull-down, refers to: LINJ.36.6110",Leishmania donovani axenic amastigote extract,10 µM,baseline: vehicle,relative abundance,0.94
CC[C@H](C)[C@@H]1NC(=O)[C@H](CO)NC(=O)[C@H](CCCCN)NC(=O)[C@@H]2CSSC[C@@H](C(=O)N[C@@H](Cc3ccc(O)cc3)C(N)=O)NC(=O)[C@H](CCCCN)NC(=O)[C@@H]3CSSC[C@H](NC(=O)[C@H](CCCNC(=N)N)NC(=O)[C@H](CC(C)C)NC(=O)[C@H](CC(=O)O)NC(=O)[C@H](CC(=O)O)NC(=O)[C@H](CCC(=O)O)NC(=O)[C@H](CC(N)=O)NC(=O)[C@H](Cc4c[nH]c5ccccc45)NC(=O)C(C)(CC)NC(=O)CNC(=O)[C@H](CC(N)=O)NC(=O)[C@@H](NC(=O)CNC(=O)[C@H](Cc4ccccc4)NC(=O)CN)CSSC[C@H](NC(=O)[C@H](Cc4ccc(O)cc4)NC(=O)CNC(=O)CNC(=O)[C@H](CCCCN)NC(=O)[C@H](Cc4ccc(O)cc4)NC(=O)[C@H]4CCCN4C(=O)[C@@H]4CCCN4C1=O)C(=O)N[C@@H](C)C(=O)N[C@@H](CCCCN)C(=O)N1CCC[C@@H]1C(=O)NCC(=O)N[C@@H](Cc1ccccc1)C(=O)N[C@@H](C(C)C)C(=O)N3)C(=O)N[C@@H](Cc1c[nH]cn1)C(=O)N[C@@H](CC(N)=O)C(=O)N[C@@H](Cc1c[nH]cn1)C(=O)N2 (stereo partly shown),Streptococcus pneumoniae,,BS-441,"24 h, 37 °C, 99.9% killing",,MBC,0.5 µM
[O-][N+]1=C(Cc2ccccc2)C2=NCCCN2c2ccccc21,Clostridioides difficile,microbial growth,,,,MIC50,16 µg/mL
Nc1nc2c(c(=O)[nH]1)[n+](Cc1cn3cc(Cl)ccc3n1)cn2C/C=C\CP(=O)(O)O,"EIF4E (Homo sapiens, UniProt P06730)","inhibitor, fluorescence polarization",,"40 min, with: m7GTP-FAM probe 15 nM",,IC50,4 ± 0.3 µM
Cc1cc(C(=O)Nc2nc3cccc(C)c3n2[C@H]2CCCCN(C(=O)/C=C/CN(C)C)C2)ccn1,Trypanosoma brucei brucei,,2T1 wild type,150 x EC50,,survival,-0.057% and -0.021% and -0.012% and -0.056%
CCOC(=O)C1(Cc2cc(OC)cc(OC)c2)Oc2cc(F)ccc2N(Cc2cc(OC)cc(OC)c2)C1=O (stereo not shown),Setaria viridis,"fresh weight, greenhouse postemergence",,"postemergence, 150 g ai/ha, 21 days",,inhibition,53.3 ± 1.94%
O=C(O)CN(CC(=O)O)CP(=O)(O)O,Providencia stuartii,,NDM-1 producer,"32 µg/mL, with: meropenem",baseline: meropenem alone,fold MIC reduction,128
CC[C@H](C)CCCCC(=O)N[C@@H](CCN)C(=O)N[C@H](C(=O)N[C@@H](CCN)C(=O)N[C@H]1CCNC(=O)[C@H]([C@@H](C)O)NC(=O)[C@H](CCN)NC(=O)[C@H](CCN)NC(=O)[C@H](CC(C)C)NC(=O)[C@@H](CC(C)C)NC(=O)[C@H](CCN)NC1=O)[C@@H](C)O,Escherichia coli,daily serial passaging,ATCC 8739,"highest sub-MIC, 50 days",baseline: initial MIC,MIC fold change,2.42
CC[C@H](C)[C@@H]([C@@H](CC(=O)N1CCC[C@H]1[C@H](OC)[C@@H](C)C(=O)N[C@H](C)[C@@H](O)c1ccccc1)OC)N(C)C(=O)[C@@H](NC(=O)[C@H](C(C)C)N(C)C(=O)OCc1ccc(NC(=O)[C@H](CCCNC(N)=O)NC(=O)[C@@H](NC(=O)CCCCCN2C(=O)CC(SC[C@H](NC(=O)[C@H](CC(=O)O)NC(=O)[C@H](Cc3ccc(O)cc3)NC(=O)[C@H](Cc3c[nH]c4ccccc34)NC(=O)[C@@H](N)CCCNC(=N)N)C(=O)O)C2=O)C(C)C)cc1)C(C)C (stereo partly shown),,,"C57BL/6 mice (healthy), serum and organs","intraperitoneal, 2.5 mg/kg, 6 h",,concentration,not detected
CC(C)[C@H]1NC(=O)C[C@H]2/C=C/CCSSC[C@@H](NC1=O)C(=O)N[C@H](Cc1cccc3ccccc13)C(=O)NCC(=O)O2,"MAP4K4 (Homo sapiens, UniProt O95819)","enzyme activity, inhibitor",,10 µM,,inhibition,-1%
